{"data": "Assay results collected from several papers", "note": "A part holds a random share of what one study measured.", "chain of UniProt Q7L7X3 (whole entry, looked up)": "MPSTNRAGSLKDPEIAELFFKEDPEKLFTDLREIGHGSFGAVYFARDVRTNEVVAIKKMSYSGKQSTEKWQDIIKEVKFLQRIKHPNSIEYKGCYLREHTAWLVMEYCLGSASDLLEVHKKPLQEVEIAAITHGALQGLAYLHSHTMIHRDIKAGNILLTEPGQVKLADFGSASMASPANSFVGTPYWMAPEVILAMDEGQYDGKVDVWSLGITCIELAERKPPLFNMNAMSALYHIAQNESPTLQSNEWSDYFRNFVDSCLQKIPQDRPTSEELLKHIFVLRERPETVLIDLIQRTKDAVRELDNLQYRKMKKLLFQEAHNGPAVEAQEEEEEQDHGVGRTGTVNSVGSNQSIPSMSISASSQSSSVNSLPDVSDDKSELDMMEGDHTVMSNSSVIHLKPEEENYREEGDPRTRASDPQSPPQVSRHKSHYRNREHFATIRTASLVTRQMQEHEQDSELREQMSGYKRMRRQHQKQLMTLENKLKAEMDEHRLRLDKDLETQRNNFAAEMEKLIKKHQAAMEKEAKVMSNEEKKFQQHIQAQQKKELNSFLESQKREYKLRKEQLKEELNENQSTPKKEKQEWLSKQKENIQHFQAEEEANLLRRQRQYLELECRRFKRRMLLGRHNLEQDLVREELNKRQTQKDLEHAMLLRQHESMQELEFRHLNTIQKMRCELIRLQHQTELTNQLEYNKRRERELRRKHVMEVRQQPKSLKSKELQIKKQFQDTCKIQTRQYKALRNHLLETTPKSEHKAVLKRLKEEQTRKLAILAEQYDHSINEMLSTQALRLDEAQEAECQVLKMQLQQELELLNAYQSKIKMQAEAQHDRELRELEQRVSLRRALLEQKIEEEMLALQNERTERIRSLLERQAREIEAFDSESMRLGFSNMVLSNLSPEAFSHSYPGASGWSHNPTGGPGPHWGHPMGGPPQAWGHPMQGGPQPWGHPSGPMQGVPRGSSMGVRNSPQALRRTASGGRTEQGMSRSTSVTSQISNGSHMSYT", "chain of UniProt Q13705 (whole entry, looked up)": "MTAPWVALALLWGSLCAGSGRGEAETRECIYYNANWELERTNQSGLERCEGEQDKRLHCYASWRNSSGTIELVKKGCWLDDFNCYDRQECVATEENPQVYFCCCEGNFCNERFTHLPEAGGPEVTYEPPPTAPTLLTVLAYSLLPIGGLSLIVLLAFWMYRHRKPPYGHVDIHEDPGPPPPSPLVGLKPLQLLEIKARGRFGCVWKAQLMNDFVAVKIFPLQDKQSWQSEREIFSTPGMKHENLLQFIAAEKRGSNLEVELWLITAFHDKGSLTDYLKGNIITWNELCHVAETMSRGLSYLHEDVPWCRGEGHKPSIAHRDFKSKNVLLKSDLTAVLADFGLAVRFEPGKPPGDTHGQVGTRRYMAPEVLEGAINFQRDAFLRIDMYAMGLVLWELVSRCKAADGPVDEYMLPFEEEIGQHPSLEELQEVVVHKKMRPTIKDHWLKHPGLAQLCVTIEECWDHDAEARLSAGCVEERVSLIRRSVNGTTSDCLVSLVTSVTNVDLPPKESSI", "chain of UniProt Q14289 (whole entry, looked up)": "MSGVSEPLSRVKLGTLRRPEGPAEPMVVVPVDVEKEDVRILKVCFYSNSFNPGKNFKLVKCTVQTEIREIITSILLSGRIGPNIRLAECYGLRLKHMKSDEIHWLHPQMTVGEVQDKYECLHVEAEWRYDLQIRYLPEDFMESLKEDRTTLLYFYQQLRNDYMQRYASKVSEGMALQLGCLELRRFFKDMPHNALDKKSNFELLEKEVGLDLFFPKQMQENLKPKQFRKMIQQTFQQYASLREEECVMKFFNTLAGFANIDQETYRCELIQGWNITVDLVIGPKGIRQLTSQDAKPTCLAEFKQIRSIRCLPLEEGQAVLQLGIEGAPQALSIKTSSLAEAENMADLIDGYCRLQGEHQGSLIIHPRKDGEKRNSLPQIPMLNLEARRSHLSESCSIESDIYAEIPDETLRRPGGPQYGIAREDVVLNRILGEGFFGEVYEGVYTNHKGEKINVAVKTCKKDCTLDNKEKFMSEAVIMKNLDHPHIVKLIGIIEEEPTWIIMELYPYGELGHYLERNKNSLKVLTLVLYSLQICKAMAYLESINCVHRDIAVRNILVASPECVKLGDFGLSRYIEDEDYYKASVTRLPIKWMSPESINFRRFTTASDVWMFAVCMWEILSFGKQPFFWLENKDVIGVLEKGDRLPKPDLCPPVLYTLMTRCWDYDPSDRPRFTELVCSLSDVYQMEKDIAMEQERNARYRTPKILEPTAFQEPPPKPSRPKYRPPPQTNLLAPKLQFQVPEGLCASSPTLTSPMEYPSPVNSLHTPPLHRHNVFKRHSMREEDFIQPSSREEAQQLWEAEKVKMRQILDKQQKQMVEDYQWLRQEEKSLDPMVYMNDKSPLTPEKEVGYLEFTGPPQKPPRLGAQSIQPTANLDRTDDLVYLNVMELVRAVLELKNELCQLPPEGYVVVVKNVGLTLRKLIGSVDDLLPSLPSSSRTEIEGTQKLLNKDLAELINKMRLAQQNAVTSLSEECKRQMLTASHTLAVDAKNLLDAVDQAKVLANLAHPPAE", "chain of UniProt Q86Z02 (whole entry, looked up)": "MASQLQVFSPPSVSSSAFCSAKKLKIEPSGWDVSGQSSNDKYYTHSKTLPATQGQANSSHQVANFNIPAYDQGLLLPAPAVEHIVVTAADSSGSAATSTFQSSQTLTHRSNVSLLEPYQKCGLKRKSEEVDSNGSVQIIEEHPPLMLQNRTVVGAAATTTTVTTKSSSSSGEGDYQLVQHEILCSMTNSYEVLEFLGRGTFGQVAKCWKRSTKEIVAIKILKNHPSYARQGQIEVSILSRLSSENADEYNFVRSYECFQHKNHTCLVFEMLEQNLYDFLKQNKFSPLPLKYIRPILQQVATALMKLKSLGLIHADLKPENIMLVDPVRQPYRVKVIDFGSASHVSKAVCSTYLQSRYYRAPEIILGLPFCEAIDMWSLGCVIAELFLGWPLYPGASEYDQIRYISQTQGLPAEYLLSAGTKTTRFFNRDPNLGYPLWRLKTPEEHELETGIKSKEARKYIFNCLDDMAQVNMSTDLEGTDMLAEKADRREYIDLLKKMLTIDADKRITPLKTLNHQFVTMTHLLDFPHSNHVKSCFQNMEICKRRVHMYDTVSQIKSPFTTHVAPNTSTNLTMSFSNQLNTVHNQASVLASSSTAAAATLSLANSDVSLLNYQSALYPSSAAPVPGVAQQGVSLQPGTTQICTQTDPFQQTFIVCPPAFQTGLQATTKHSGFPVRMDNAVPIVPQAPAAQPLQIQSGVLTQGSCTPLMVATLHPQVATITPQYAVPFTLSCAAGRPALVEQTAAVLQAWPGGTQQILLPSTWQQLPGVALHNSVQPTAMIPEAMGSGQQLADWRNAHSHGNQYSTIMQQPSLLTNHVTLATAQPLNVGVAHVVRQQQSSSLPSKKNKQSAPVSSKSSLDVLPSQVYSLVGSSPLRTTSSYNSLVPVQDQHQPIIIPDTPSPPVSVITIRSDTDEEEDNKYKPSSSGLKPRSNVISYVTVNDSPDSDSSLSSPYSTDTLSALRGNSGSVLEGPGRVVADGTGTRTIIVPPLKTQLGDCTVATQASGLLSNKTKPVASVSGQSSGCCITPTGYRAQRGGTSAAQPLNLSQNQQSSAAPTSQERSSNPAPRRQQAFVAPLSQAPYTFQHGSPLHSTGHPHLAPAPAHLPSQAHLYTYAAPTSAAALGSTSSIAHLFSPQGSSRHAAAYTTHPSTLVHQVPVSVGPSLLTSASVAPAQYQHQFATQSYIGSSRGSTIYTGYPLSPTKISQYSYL", "chain of UniProt P19784 (whole entry, looked up)": "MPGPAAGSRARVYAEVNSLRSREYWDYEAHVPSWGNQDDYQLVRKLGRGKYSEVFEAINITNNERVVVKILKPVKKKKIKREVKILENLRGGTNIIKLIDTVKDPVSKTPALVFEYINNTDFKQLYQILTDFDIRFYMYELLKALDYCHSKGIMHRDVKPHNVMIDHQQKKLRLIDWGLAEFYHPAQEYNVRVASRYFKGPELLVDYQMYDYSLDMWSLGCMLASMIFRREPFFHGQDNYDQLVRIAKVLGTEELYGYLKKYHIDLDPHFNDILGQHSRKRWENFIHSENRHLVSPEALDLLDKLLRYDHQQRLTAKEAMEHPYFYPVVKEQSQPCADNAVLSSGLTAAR"}
{"data": "Set 1", "species": "mouse", "matrix": "microsomes or S9", "tested at": "2 µM", "time": "0.5 h"}
{"SMILES": "CCOc1ccc(S(=O)(=O)N2CCN(C)CC2)cc1-c1nc(O)c2c(n1)c(C(C)(C)C)nn2C", "remaining compound": "2.29%"}
{"SMILES": "COc1cc(=O)n(C)cc1C(=O)NCCc1ccc(S(N)(=O)=O)cc1", "remaining compound": "92.2%"}
{"SMILES": "CN(Cc1ccccc1)C(=O)COc1ccc2c3ccccc3n(C(=O)c3ccc(C(C)(C)C)cc3)c2c1", "remaining compound": "2.62%"}
{"SMILES": "CCC(=O)N(CCC1(c2ccccc2)CCOC(C)(C)C1)CC1CCOC(C)(C)C1 (stereo not shown)", "remaining compound": "0.724%"}
{"data": "Set 2", "organism": "Sarcocystis neurona", "effect on": "parasite growth", "tested at": "concentration not given", "notes": "second screen", "relative to": "untreated"}
{"SMILES": "O=C(N[C@H](CO)[C@H](O)c1ccc([N+](=O)[O-])cc1)C(Cl)Cl", "log2 fold change": 0.095}
{"SMILES": "CN1C(C(=O)Nc2ccccn2)=C(O)c2ccccc2S1(=O)=O.O", "log2 fold change": 0.27}
{"SMILES": "Cl.Cn1c(NCCN(CCO)CCCc2ccc([N+](=O)[O-])cc2)cc(=O)n(C)c1=O", "log2 fold change": 0.41}
{"SMILES": "C[C@H](N[C@@H](CCc1ccccc1)C(=O)O)C(=O)N1CCC[C@H]1C(=O)O", "log2 fold change": 0.09}
{"data": "Set 3", "Compound": "O=C(NCc1ncc(C(F)(F)F)cc1Cl)c1ccc2c(c1)C1(CCS(=O)(=O)CC1)[C@H](C1CC1)N2S(=O)(=O)c1ccc(F)cc1", "method": "competition with immobilised ligand", "tested at": "1 µM"}
{"target": "NUAK2 (Homo sapiens, UniProt Q9H093)", "effect on": "cell-free assay", "remaining binding [%]": 81}
{"target": "STK32B (Homo sapiens, UniProt Q9NY57)", "effect on": "cell-free assay", "remaining binding [%]": 100}
{"target": "Tyrosine-protein kinase JAK1, JH1 (JAK1, Homo sapiens, UniProt P23458)", "effect on": "cell-free assay", "remaining binding [%]": 86}
{"target": "PIK3CA (Homo sapiens, UniProt P42336, M1043I)", "effect on": "cell-free assay", "remaining binding [%]": 93}
{"target": "TAOK1 (Homo sapiens, UniProt Q7L7X3)", "effect on": "cell-free assay", "remaining binding [%]": 100}
{"target": "MAP3K4 (Homo sapiens, UniProt Q9Y6R4)", "effect on": "cell-free assay", "remaining binding [%]": 100}
{"target": "ACVR2B (Homo sapiens, UniProt Q13705)", "effect on": "binding", "remaining binding [%]": 90}
{"target": "HIPK1 (Homo sapiens, UniProt Q86Z02)", "effect on": "cell-free assay", "remaining binding [%]": 83}
{"target": "MAP4K2 (Homo sapiens, UniProt Q12851)", "effect on": "cell-free assay", "remaining binding [%]": 100}
{"target": "PTK2B (Homo sapiens, UniProt Q14289)", "effect on": "cell-free assay", "remaining binding [%]": 100}
{"target": "PIKFYVE (Homo sapiens, UniProt Q9Y2I7)", "effect on": "cell-free assay", "remaining binding [%]": 84}
{"target": "CSNK2A2 (Homo sapiens, UniProt P19784)", "effect on": "cell-free assay", "remaining binding [%]": 100}
{"target": "SLK (Homo sapiens, UniProt Q9H2G2)", "effect on": "cell-free assay", "remaining binding [%]": 100}
{"target": "PRKD1 (Homo sapiens, UniProt Q15139)", "effect on": "cell-free assay", "remaining binding [%]": 93}
{"data": "Set 4", "SMILES": "C=CCc1ccc(O)c(-c2ccc(O)c(CC=C)c2)c1", "ANO1 del476-501/F628A": "Anoctamin-1 (ANO1, Homo sapiens, UniProt Q5XXA6, del476-501/F628A)", "chain of UniProt Q5XXA6 (whole entry, unmodified, looked up)": "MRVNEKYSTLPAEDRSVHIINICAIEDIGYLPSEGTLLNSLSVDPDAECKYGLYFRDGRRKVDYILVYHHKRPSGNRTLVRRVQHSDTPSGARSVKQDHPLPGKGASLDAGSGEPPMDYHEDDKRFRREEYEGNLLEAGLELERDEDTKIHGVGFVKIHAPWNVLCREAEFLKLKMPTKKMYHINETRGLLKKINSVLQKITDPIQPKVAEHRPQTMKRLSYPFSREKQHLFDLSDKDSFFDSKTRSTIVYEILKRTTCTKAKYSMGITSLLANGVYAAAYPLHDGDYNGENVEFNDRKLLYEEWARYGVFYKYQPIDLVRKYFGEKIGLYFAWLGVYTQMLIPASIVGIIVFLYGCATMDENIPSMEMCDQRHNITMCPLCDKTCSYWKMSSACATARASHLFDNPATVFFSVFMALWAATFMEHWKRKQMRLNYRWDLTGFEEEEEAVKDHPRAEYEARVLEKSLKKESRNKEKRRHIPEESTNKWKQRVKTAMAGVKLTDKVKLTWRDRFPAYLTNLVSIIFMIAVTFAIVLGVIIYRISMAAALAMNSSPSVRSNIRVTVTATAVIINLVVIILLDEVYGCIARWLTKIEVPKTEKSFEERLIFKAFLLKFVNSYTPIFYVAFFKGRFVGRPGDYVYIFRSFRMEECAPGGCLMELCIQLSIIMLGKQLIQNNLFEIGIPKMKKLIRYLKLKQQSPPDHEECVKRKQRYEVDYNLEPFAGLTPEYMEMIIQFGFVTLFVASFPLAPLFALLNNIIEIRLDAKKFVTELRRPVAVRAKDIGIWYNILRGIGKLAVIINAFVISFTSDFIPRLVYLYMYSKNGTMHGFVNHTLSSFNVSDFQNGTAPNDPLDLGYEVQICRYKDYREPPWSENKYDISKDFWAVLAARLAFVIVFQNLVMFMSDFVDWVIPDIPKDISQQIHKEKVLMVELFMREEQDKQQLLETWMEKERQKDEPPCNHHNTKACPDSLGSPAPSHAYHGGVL"}
{"target": "ANO1 del476-501/F628A", "effect on": "chloride current", "method": "whole-cell voltage clamp", "tested at": "30 µM", "notes": "concentration-response at -60 mV", "with": "4 µM Ca2+", "normalized current": -0.287}
{"target": "Anoctamin-1 (ANO1, Homo sapiens, UniProt Q5XXA6, del476-501)", "effect on": "chloride current", "method": "whole-cell voltage clamp", "tested at": "concentration not given", "with": "300 nM Ca2+", "normalized current": 0.414}
{"target": "ANO1 del476-501/F628A", "effect on": "chloride current", "method": "whole-cell voltage clamp", "tested at": "10 µM", "notes": "concentration-response at 20 mV", "with": "4 µM Ca2+", "normalized current": 0.153}
{"target": "Anoctamin-1 (ANO1, Homo sapiens, UniProt Q5XXA6, del476-501/R541A)", "effect on": "chloride current", "method": "inside-out patch clamp", "tested at": "10 µM", "notes": "membrane voltage 60 mV", "normalized current": 0.388}
{"target": "Anoctamin-1 (ANO1, Homo sapiens, UniProt Q5XXA6, del476-501/E659A/K629A)", "effect on": "chloride current", "method": "inside-out patch clamp", "tested at": "10 µM", "notes": "membrane voltage 60 mV", "normalized current": 0.496}
{"target": "Anoctamin-1 (ANO1, Homo sapiens, UniProt Q5XXA6, del476-501/E649A)", "effect on": "ion current", "method": "inside-out patch clamp", "tested at": "10 µM", "notes": "E623A mutant at 40 mV", "normalized current": 0.297}
{"note": "Excerpt of the above (set 4):"}
{"target": "Anoctamin-1 (ANO1, Homo sapiens, UniProt Q5XXA6, del476-501/R541A)", "effect on": "chloride current", "method": "inside-out patch clamp", "tested at": "10 µM", "notes": "membrane voltage 60 mV", "normalized current": 0.388}
{"target": "Anoctamin-1 (ANO1, Homo sapiens, UniProt Q5XXA6, del476-501/E649A)", "effect on": "ion current", "method": "inside-out patch clamp", "tested at": "10 µM", "notes": "E623A mutant at 40 mV", "normalized current": 0.297}
